Measured values of several laboratories.
Each numbered part is a random draw from the data of one study; scales do not carry over between parts.

Block 1 — method: protein binding microarray; form: double-stranded DNA, one strand shown; medium: in vitro; tested at: not given; relative to: not given; reading: higher = stronger binding
Target: Histone acetyltransferase KAT6A, winged helix 1, GST fusion (KAT6A, Homo sapiens, UniProt Q92794, residues 1-85)
Setting: 8-mer, flanks averaged, mean of 2 arrays, mostly near background
Target sequence (chain): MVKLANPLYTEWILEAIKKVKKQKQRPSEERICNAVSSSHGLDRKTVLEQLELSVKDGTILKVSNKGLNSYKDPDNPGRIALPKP
The E-score of `CACGACAA` is reported as -0.175.
`CTACAATC` has an E-score of -0.0738.
`GTCAAATA` has an E-score of -0.0997.
For `CCCCCGCA`, the E-score was 0.227.
With `CTTTGAGA` the E-score was -0.0778.
The E-score of `GCTTGACA` is reported as -0.095.
For `AGCTCTAG`, the E-score was -0.0663.
`CCCGACCA` has an E-score of -0.0245.

Block 2 — method: universal PBM; form: double-stranded DNA, one strand shown; medium: in vitro; tested at: 600 nM; reading: higher = stronger binding
Target: Sal-like protein 4, full length isoform A (SALL4, Homo sapiens, UniProt Q9UJQ4, residues 1-1053)
Sequence of UniProt Q9UJQ4 (whole entry, looked up): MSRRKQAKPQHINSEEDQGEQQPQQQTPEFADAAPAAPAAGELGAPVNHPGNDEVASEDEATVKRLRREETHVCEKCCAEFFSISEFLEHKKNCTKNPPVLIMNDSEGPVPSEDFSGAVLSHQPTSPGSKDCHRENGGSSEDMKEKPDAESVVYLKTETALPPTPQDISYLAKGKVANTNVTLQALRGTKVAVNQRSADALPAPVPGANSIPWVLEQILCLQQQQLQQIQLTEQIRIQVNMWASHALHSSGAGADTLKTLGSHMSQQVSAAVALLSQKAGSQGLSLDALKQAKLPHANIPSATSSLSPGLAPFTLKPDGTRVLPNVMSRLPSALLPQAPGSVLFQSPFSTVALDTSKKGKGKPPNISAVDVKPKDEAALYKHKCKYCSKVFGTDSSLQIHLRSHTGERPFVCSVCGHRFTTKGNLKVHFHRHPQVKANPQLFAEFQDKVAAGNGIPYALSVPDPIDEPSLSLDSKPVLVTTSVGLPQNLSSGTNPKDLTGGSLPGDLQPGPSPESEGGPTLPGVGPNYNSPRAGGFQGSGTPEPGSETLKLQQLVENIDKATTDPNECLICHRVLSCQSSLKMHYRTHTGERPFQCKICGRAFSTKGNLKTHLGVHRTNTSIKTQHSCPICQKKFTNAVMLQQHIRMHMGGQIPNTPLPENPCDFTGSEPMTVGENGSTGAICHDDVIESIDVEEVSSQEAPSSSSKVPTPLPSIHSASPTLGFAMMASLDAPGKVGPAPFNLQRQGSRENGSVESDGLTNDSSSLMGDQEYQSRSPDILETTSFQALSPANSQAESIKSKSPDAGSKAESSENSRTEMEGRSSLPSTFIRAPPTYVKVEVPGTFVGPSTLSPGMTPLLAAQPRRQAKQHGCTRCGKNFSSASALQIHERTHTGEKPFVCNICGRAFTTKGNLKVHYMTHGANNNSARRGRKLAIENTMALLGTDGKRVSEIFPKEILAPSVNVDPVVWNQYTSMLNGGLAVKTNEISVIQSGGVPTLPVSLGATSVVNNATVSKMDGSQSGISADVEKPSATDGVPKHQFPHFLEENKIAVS
Setting: 8-mer, flanks averaged, mean of replicates
The E-score of `AGTGGTAT` is reported as 0.123.
The E-score of `CTCCCTAC` is reported as -0.0505.
The E-score of `TCCGCTCA` is reported as -0.19.
`CCTCATTA` gave an E-score of 0.207.
With `AGCTATCG` the E-score was 0.00202.
`AAATTATG` gave an E-score of 0.359.
`CGTCCGGA` has an E-score of -0.258.
`ATCTGCTC` has an E-score of -0.0586.

Block 3 — action: inhibitor; tested at: 20 µM
Target: Replicase polyprotein 1ab, nsp13 helicase (rep, Severe acute respiratory syndrome coronavirus 2, UniProt P0DTD1)
For `NC(=O)c1ccc(N(C(N)=O)c2c(F)cccc2F)nc1-c1ccc(F)cc1F`, the inhibition was 3.95%.
`N=C(CC(O)COc1ccccc1-c1ccccc1)N1CCCCC1` (centres unmarked) gave an inhibition of 4.02%.
`O=C1N[C@H](C(=O)O)CS1` gave an inhibition of 9.75%.
For `CCC(=O)NO`, the inhibition was 3.46%.
The inhibition of `CC1/C=C/C=C/C=C/C=C/C=C/C=C/C=C/C(OC2O[C@H](C)[C@@H](O)[C@H](N)[C@@H]2O)CC(O)C(C(=O)O)C(O)CC(=O)CC(O)CC(O)CC(O)CC(=O)CCCC(=O)CC(=O)OC1C(C)CC(C)C(O)CC(=O)c1ccc(N)cc1` (some centres unmarked) is reported as 74%.
With `C[C@H]1[C@H](OC(=O)CCC(=O)O)O[C@@H]2O[C@@]3(C)CC[C@H]4[C@H](C)CC[C@@H]1[C@@]24OO3` the inhibition was 2.51%.
The inhibition of `CNC(=O)N(C)N=O` is reported as 1.53%.
`COc1cc([C@@H]2c3cc4c(cc3[C@@H](O[C@@H]3O[C@@H]5CO[C@@H](C)O[C@H]5[C@H](O)[C@H]3O)[C@H]3COC(=O)[C@H]23)OCO4)cc(OC)c1OP(=O)(O)O` gave an inhibition of 2.51%.
With `CC#CCn1c(N2CCC[C@@H](N)C2)nc2c1c(=O)n(Cc1nc(C)c3ccccc3n1)c(=O)n2C` the inhibition was -0.01%.
For `Fc1ccc(-c2cncc(CN3CCN(c4cccc5c4OCCO5)CC3)c2)cc1`, the inhibition was 3.43%.
`C[C@H](N[C@@H](CCc1ccccc1)C(=O)O)C(=O)N1Cc2ccccc2C[C@H]1C(=O)O` has an inhibition of 0.3%.
With `Nc1nc2c(ccc3ccccc32)s1` the inhibition was 0.33%.
`C[N+]1([O-])[C@@H]2CC[C@H]1C[C@@H](OC(=O)C(CO)c1ccccc1)C2` (some centres unmarked) gave an inhibition of 2.18%.
`COc1ccc(C2(CNC(=O)c3ccc(NC(=O)c4ccco4)cc3)CCOCC2)cc1` gave an inhibition of 0.73%.
For `O=S(=O)(O)c1ccc(-c2c3nc(c(-c4ccc(S(=O)(=O)O)cc4)c4ccc([nH]4)c(-c4ccc(S(=O)(=O)O)cc4)c4nc(c(-c5ccc(S(=O)(=O)O)cc5)c5ccc2[nH]5)C=C4)C=C3)cc1`, the inhibition was 82.3%.
With `CS(=O)(=O)Nc1ccc2oc3c(OC(F)F)ccc(C(=O)Nc4c(Cl)cncc4Cl)c3c2c1` the inhibition was 8.29%.
For `CC1(C)S[C@@H]2[C@H](NC(=O)[C@H](N)c3ccc(O)cc3)C(=O)N2[C@H]1C(=O)O`, the inhibition was -0.28%.
For `COC(=O)Nc1nc2cc(Sc3ccccc3)ccc2[nH]1`, the inhibition was -4.7%.
For `Nc1ccn([C@H]2CC[C@@H](CO)O2)c(=O)n1`, the inhibition was 4.24%.
`Cn1cc(-c2cnn3c(N)c(Br)c([C@@H]4CCCNC4)nc23)cn1` gave an inhibition of 21%.
`CN1CCN(Cc2ccc(-c3cnc4[nH]cc(-c5ccc6[nH]ccc6c5)c4c3)cc2)CC1` has an inhibition of 35.3%.
The inhibition of `Cc1ccc(S(=O)(=O)Nc2ccc3c(c2)c(C(=O)C(F)(F)F)cn3CC(=O)N[C@@H](CC(C)C)C(=O)O)cc1` is reported as 3.62%.

Block 4 — method: RNA Bind-n-Seq; form: RNA; medium: in vitro; tested at: 365 nM; relative to: no-protein control; reading: higher = stronger binding
Target: RNA binding protein fox-1 homolog 2, RRM domain, GST-SBP tag (RBFOX2, Homo sapiens, UniProt O43251-10, residues 100-194)
Setting: natural RNA segment, single round, ends assumed
Residues (chain): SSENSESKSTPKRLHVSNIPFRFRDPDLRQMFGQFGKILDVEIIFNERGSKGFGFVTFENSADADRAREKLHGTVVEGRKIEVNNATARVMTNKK
Under “RBNS enrichment (R)”, `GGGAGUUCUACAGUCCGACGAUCCUCUAGCAGCUUCCACAGACUUGGCUCGUGGCCUUCCUUAUAUCCACUGGGAACAAACAGCCUCGCGCUCUAUACCAAACAGCCUCGCGCUCUAUCCCAGUCGCCCAUUAUGGAAUUCUCGGGUGCCAA` is recorded as 0.252.
For `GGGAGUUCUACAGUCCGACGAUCCCCAUCUGGGCUGUCUCUGCAGGGCAGAGCCGUCCAGACCUGGGAUCAGGGAAGCUGCUGGCAUCGUCCCCACCCCCAGCCUGGGGGUCUGGGCUGGGGCAGGGAUUGCUUGGAAUUCUCGGGUGCCAA`, “RBNS enrichment (R)” read 0.221.
Under “RBNS enrichment (R)”, `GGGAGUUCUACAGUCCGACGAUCUCUCUUAAUGUUGCCAAUAGAAGGCUUGAGCAGGAAGCUUGUAGCACUGAUCUAAUUGUGUGUACAACCAUCAACUUAAAUUUAUAAAAUGGCCUUUUUCUUGGCGUCUAUGGAAUUCUCGGGUGCCAA` is recorded as 0.32.
Under “RBNS enrichment (R)”, `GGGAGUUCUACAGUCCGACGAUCUUGUACUUGCAUGACAUGGAUAUCUGGUAUCUGAGGACAAGUUCAUUCUUGUGUAUUUAAUAACAAAGGUGGCCCUCUUCAUGUCUGCUCCUCCCUACAGGCACUGUCUGUGGAAUUCUCGGGUGCCAA` is recorded as 1.
For `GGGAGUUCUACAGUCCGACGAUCUAGAUUUCAGAUGACUAUGCAGAGGCCUUGGGGACCCCUCCCCAGCUCUGGGCAGGGCCUGGGGAUCCCACAUUCCAUGCCCAGGCUUGGGGGAGGGGGACCCAGACUUGUGGAAUUCUCGGGUGCCAA`, “RBNS enrichment (R)” read 0.279.
Under “RBNS enrichment (R)”, `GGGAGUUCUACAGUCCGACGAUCUAACAUUGCUGUCUGUAUGUCGUGUAUGCUAGGUGAUAUCCUCAGUAGGGAUUGACUACUAGACUGUGUGUUUUAUCAAAGUGUGUAAGAAUAAAAACUCACUUGCACGAUGGAAUUCUCGGGUGCCAA` is recorded as 0.601.
`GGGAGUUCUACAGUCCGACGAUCAAUUAAAAAAACAAAAAUAAAGUCUAAUAAGAACUUUGGUACAGGAACUUUUUUGUAAUAUACAUGUAUGAAUUGUUCAUCGAGUUUUUAUAUUAAUUUUAAUUUGCUGCUGGAAUUCUCGGGUGCCAA`: “RBNS enrichment (R)” 0.972.
`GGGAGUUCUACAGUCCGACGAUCUGAUGAAAAUAAAUAGAGUGUAAAUUCUUUUUAAUGCUUUAGUGAUUAAAUGUUUUAGUAUUUUGAACUGAAAUGGACAAAAAAAGAAAAAGGAAAAAAAAAGCAGGUUUUGGAAUUCUCGGGUGCCAA` — result for “RBNS enrichment (R)”: 1.79.

Block 5 — organism: SARS-CoV-2; read-out: cytopathic effect; cells: Vero E6; tested at: 10 µM
The inhibition of `Oc1cc2c(cc1O)CN(C(=S)NCCc1ccc(Cl)cc1)CCC2` is reported as 12.4%.
The inhibition of `Nc1ccc(S(=O)(=O)Nc2ncccn2)cc1` is reported as -22.9%.
The inhibition of `CC1(C)C(/C=C/C=C/C=C/C=C2\N(CCCCS(=O)(=O)[O-])c3ccc4ccccc4c3C2(C)C)=[N+](CCCCS(=O)(=O)[O-])c2ccc3ccccc3c21.[Na+]` is reported as -14.3%.
`CCN(CC)c1ccc(C(=C2C=CC(=[N+](CC)CC)C=C2)c2ccccc2)cc1` gave an inhibition of -43.2%.
